Assay results of several laboratories.
Each line is one published result; not all experiments were run side by side. ± gives the spread as reported.

`NC1(C(=O)N[C@@H](CCO)c2ccc(Cl)cc2)CCN(c2nc[nH]c3nccc2-3)CC1`: “incidence of lower abdominal pain” 0% (metastatic CRPC patients; 320 mg b.i.d., grade 3 to 4, treatment-related, together with: enzalutamide 160 mg daily).
`Nc1nc2c(nc([N+](=O)[O-])n2[C@@H]2O[C@H](CO)[C@@H](O)[C@H]2O)c(=O)[nH]1`: “nucleoside remaining fraction” 0.235 (depurination, RP-HPLC; citrate-phosphate buffer 0.5 mM; 2700 min, pH 5, 37 °C).
For `O=C(Nc1nc2cccc(-c3ccc(CN4CCS(=O)(=O)CC4)cc3)n2n1)C1CC1`, “treatment-emergent adverse events” read 0% (measured: injection site haematoma; human rheumatoid arthritis patients; oral, 300 mg once daily, 4 weeks, regardless of relatedness).
`COc1ncc(-c2nc3c(n2C(C)C)[C@H](c2ccc(Cl)cc2)N(c2cc(Cl)cn(C)c2=O)C3=O)c(OC)n1` gave a median Tmax of 2 h (human patients, plasma; oral, 4 mg, low-dose arm, cycle 1 day 8).
For `O=C(O)CCCCCCCCCCCCC(=O)O`, “relative peak deviation” read 59.8 ± 14.6% (human, plasma; endogenous control diurnal; relative to: daily mean concentration).
Under “patients with adverse event”, `COc1cc(Nc2ncc3c(n2)-c2ccc(Cl)cc2C(c2c(F)cccc2OC)=NC3)ccc1C(=O)O` is recorded as 25% (measured: increased LDH, all grades; cancer patients, phase 1/2; oral, dose not given, together with: pembrolizumab).
Under “patients with TEAE”, `COc1ccc([C@@H](O)c2cc(-c3ncnc4cc(N5CCOCC5)ccc34)c(F)cc2Cl)nn1` is recorded as 47% (measured: Nausea; locally advanced rectal cancer patients; dose not given, all dose groups, together with: capecitabine plus radiotherapy).
`CC(C)(C)c1ccc(O)c(CN(Cc2cc(C(C)(C)C)ccc2O)C2CCC(NC(N)=O)CC2)c1` (stereo not shown) gave a dose-normalised Cmax of 145 ng/mL per mg/kg (C57BL/6 mice, male, plasma; intraperitoneal, 25 mg/kg, single dose).
`CNC(=O)c1cccc(-c2ccc([C@@H](O)[C@H]3O[C@H](CO)[C@@H](O)[C@H](O)[C@@H]3O)c(C)c2)c1` has a urinary recovery of 0.19% (male Sprague-Dawley rat, urine; oral, 10 mg/kg, 24 h, mean; relative to: dose).
For `CNC(=O)c1ccc(-c2cnc3ncc(Cc4ccc5ncccc5c4)n3n2)cc1F`, the AUC(0-t) was 9110 ng·h/mL (human severe hepatic impairment; oral, 200 mg single dose, covariate-adjusted geometric mean).
`CCc1cc(C(=O)NC)c2nccc(N3CCc4c(cc(Cn5ccnc5)cc4-c4cn(C)nc4C(F)(F)F)C3=O)c2c1`: “change in clinical chemistry or haematology parameter” 20.3% (measured: Mono; Sprague Dawley rat; oral, 50 mg/kg once daily, 7 days; relative to: vehicle).
With `CC(=O)N(C)[C@H]1CCN(C(=O)c2cnc3c(c2)C[C@](C)(c2ccc(F)cc2)N3)C1` the creatine kinase-MB was 11.8 µg/L (human; dose not given).
The AUC(0-tau) of `N[C@@H]1c2ccccc2OC12CCN(c1cnc3c(N4CCCc5ncccc54)n[nH]c3n1)CC2` is reported as 5530 ng·h/mL (advanced metastatic solid tumour patients, plasma; oral, 75 mg once daily, cycle 1 day 1, geometric mean).
For `Cc1ccc(Sc2ccccc2N2CCNCC2)c(C)c1`, “participants with TEAE” read 0% (measured: thermal burn; healthy adult women; oral, 10 mg daily, 12 days).
For `Cc1noc(C)c1-c1cc(C(O)(c2ccccn2)c2ccccn2)c2nc(C3CC3)[nH]c2c1`, the Ctau was 157 ng/mL (human male patients, fasted, plasma; oral, 3 mg once daily, cycle 1 day 8).
`C[C@@H](Oc1ccc(S(C)(=O)=O)cc1C(=O)N1C[C@@H]2C[C@]2(c2cc(C(F)(F)F)on2)C1)C(F)(F)F` — result for “subjects with diarrhoea”: 16.7% (human; oral plus intravenous microtracer, dose not given).
Under “pulse rate AUEC, geometric mean”, `NC(CO)(CO)CCc1ccc(Sc2cccc(OCc3ccccc3)c2)cc1Cl` is recorded as 19200 h×bpm (human, supine; oral, 3 mg, 0 to 312 h, alone).
With `CO[C@H]1C[C@@H]2CC[C@@H](C)[C@@](O)(O2)C(=O)C(=O)N2CCCC[C@H]2C(=O)O[C@H]([C@H](C)C[C@@H]2CC[C@@H](O)[C@H](OC)C2)CC(=O)[C@H](C)/C=C(\C)[C@@H](O)[C@@H](OC)C(=O)[C@H](C)C[C@H](C)/C=C/C=C/C=C/1C` the rectal temperature was 37.2 ± 0.3 °C (healthy adult horses; intravenous, 0.06 mg/kg, 72 h).
For `O=C(N/N=C/c1ccccc1O)c1ccncc1`, the stability was 99.9% (ADS buffer; 115 µM, 12 h, 5 °C, post-preparative, autosampler).
`C[Si]1(C)O[Si](C)(C)O[Si](C)(C)O[Si](C)(C)O[Si](C)(C)O1` — result for “slope B, log KAW vs 1/T”: -6470.
For `FC(F)(F)c1ccc(CNc2ccc(Cc3c[nH]c4ncc(Cl)cc34)cn2)cn1`, “adverse events, all grades” read 26% (measured: neutropenia; patients with advanced solid tumours; oral, dose not given, phase Ib, related to compound).
For `C/C(=N\c1ccc(O)cc1)c1cc2ccccc2n1C`, freeze-thaw stability read “stable” (rat, plasma; three freeze-thaw cycles).
`Cn1cnc2c(F)c(Nc3ccc(Br)cc3Cl)c(C(=O)NOCCO)cc21` has a relative bioavailability of 0.85 (population PK model; human, plasma; oral, sequential zero-first-order absorption; relative to: fed over fasted).
For `CN(C(=O)C(C)(C)c1cc(C(F)(F)F)cc(C(F)(F)F)c1)c1cnc(N2C[C@H]3COCCN3C[C@H]2CO)cc1-c1ccc(F)cc1[14CH3]`, the radioactivity excreted was 0.436% (healthy men, urine; oral, 120 mg, up to 480 h; relative to: dose).
`Cc1cc(-c2nccc3c2ccn3CC(=O)Nc2ccc(-c3cnccn3)cn2)ccn1`: “nervous system disorders” 33.3% (human; 15 mg once daily, multiple ascending dose).
`CCO[C@H]1CCN(Cc2c(OC)cc(C)c3[nH]ccc23)[C@H](c2ccc(C(=O)O)cc2)C1`: “incidence free thyroxine increase” 0% (PNH patients, active haemolysis; oral, 50 mg, treatment).
With `C=CC(=O)Nc1cc(Nc2nccc(-c3cn(C)c4ccccc34)n2)c(OC)cc1N(C)CCN(C)C` the recovery was 82.6% (storage stability; human dried blood spots; 24 h, -80 °C, LLOQ level).
The half-life of `Cc1cccc(CNC(=O)c2cn(CCNC(=O)c3ccccc3S)c3cc4c(cc3c2=O)OC(F)(F)O4)n1` is reported as 642 ± 28.8 min (Sprague-Dawley rat, male, plasma; intravenous, 20 mg/kg of parent drug).
The terminal half-life of `CS(=O)(=O)c1ccc([C@@H](O)[C@@H](CF)NC(=O)C(Cl)Cl)cc1` is reported as 2.14 ± 0.47 h (Arbor Acres chickens, plasma; oral, 20 mg/kg, together with: saline pretreatment).
`COc1cccc(OC)c1-c1cc(C(=O)NC2(C(=O)O)C3CC4CC(C3)CC2C4)nn1-c1ccc(C(=O)N(C)CCCN(C)CCCN(C)C(=O)CN2CCN(CC(=O)[O-])CCN(CC(=O)[O-])CCN(CC(=O)[O-])CC2)cc1C(C)C.[177Lu+3]` (stereo not shown) gave a tumour-to-spleen ratio of 41.4 (mouse HT-29 xenograft; 72 h, biodistribution; relative to: tumour over spleen).
`N#CCNC(=O)c1ccc(-c2ccnc(Nc3ccc(N4CCOCC4)cc3)n2)cc1` gave an AUC0-last ratio of 89.5% (healthy human volunteers, plasma; oral, dose not given, together with: multiple-dose rifampin; relative to: compound alone).
`CCOc1c([C@H](C)n2nc(C)c3c(N)ncnc32)cc(Cl)c(F)c1[C@@H]1CNC(=O)C1` has an ECG observations of 100% (measured: QTcF ≤450 ms; previously treated B-cell malignancy; oral, 5 mg once daily, overall population).
For `CC(C)Oc1c(NC(=O)c2ccc(NC(=O)[C@H](CC(N)=O)NC(=O)c3ccc(NC(=O)c4ccc(C#N)cc4)cc3)cc2)ccc(C(=O)N/N=C/c2ccc(C(=O)O)cc2)c1O`, the thermal half-life was 36 min (absorbance; DMSO; 50 °C, PSS to ground state relaxation).
`CCn1cc(C(=O)N2CCOCC2)c(=O)c2cc(NC3Cc4ccccc4C3)cnc21` gave a Tmax of 45 min (human, fasted, plasma; oral, 1200 mg single dose, tablet, median).
For `CNCc1ccc(-c2[nH]c3cc(F)cc4c3c2CCNC4=O)cc1`, the cough incidence was 0% (patients; oral, 600 mg twice daily, grade 5).
`CCn1c(=O)c(-c2cc(NC(=O)Nc3ccccc3)c(F)cc2Br)cc2cnc(NC)cc21` has an unbound fraction of at most 0.6% (plasma protein binding, ultracentrifugation; human subjects with hepatic impairment, plasma; oral, 50 mg, 24 h post-dose).
`Cn1cc(Nc2nccc(-c3ccc4c(c3)CN(C3COC3)CC[C@H]4NC(=O)c3cn(C(C)(C)C)nn3)n2)cn1` — result for “transitional B cell count change”: 83.2% (human, whole blood; 150 mg twice daily, day 7; relative to: pre-dose baseline).
`CCN1/C(=C/C(C)=O)Sc2ccc(F)cc21` — result for “mean blood pressure change”: 102 ± 1.2% (cynomolgus monkey; oral, 30 mg/kg, 6 h post-dose; relative to: pre-dose).
`O=C(O)CCCCCCCCC(=O)O` — result for “relative peak deviation”: 62.1 ± 8.6% (human, plasma; endogenous control diurnal; relative to: daily mean concentration).
For `NC(=O)N1c2ccccc2C=Cc2ccccc21`, “adverse events incidence” read 0% (measured: gingival bleeding; human male; oral, dose not given, AEs, treatment-related, on drug, CTCAE).
